Published values collected from several papers.
Compare with care: the assays were run in different laboratories. pIC50: −log10 of the molar value.

COC1C=COC2(C)Oc3c(C)c(O)c4c(c3C2=O)C2=NC3(CCN(CC(C)C)CC3)NC2=C(NC(=O)C(C)=CC=CC(C)C(O)C(C)C(O)C(C)C(OC(=O)Nc2cnccn2)C1C)C4=O (stereo not shown)  pIC50 (Mycobacteroides abscessus; ATCC 19977; CAMHB): 7.74
Cc1ncc([N+](=O)[O-])n1CCOCc1nnc(SCC(=O)c2ccc([N+](=O)[O-])cc2)o1  pIC50 (Giardia duodenalis; parasite growth): 4.95
COC(=O)c1cccc(NC(=O)c2[nH]c3cc(C)sc3c2CN2CCOCC2)c1  pIC50 (Giardia duodenalis; parasite growth; 48 h): < 5.00
O=C1Nc2ccc(Cl)cc2C1=Cc1ccc(-c2cccc(C(=O)NCC3CCNCC3)c2)o1 (mixture of isomers)  pIC50 (Trichuris muris; adult worm motility; 48 h): 4.24
Cc1ncc([N+](=O)[O-])n1CCOCc1nnc(SCC(=O)c2ccc(Br)cc2)o1  pIC50 (Giardia duodenalis; parasite growth): 5.74
CC(=O)OC[C@H]1O[C@@H](NC(=O)NC(=O)[C@@H](C)Cc2ccc(C(C)C)cc2)[C@H](OC(C)=O)[C@@H](OC(C)=O)[C@@H]1OC(C)=O  pIC50 (reovirus 1; viral cytopathicity; Vero): < 4.00
O=C1CC(c2ccc(O)cc2)Oc2cc(O)cc([O][Ga+][O]c3cc(O)cc4c3C(=O)CC(c3ccc(O)cc3)O4)c21 (stereo not shown)  IC50 (Pseudomonas aeruginosa; bacterial viability): 0.65 µg/mL
CCOC(=O)C(NC(=O)CN1C(=O)/C(=C/c2ccc([N+](=O)[O-])cc2)SC1=S)C(C)C (stereo not shown)  pIC50 (Leishmania major; parasite growth, resazurin; promastigote): < 4.00
Cc1cc2[nH]c(C(=O)NCc3cc(F)cc(F)c3)c(CN3CCOCC3)c2s1  pIC50 (Giardia duodenalis; parasite growth; 48 h): < 5.00
CCOC(=O)CNC(=O)CN1C(=O)S/C(=C\c2ccc(C)cc2)C1=O  pIC50 (Leishmania major; parasite growth, resazurin; promastigote): < 4.00
COc1ccc(C(=O)CSc2nnc(COCCn3c([N+](=O)[O-])cnc3C)o2)cc1F  pIC50 (Giardia duodenalis; parasite growth): 6.06
CCC(NC(=O)CN1C(=O)N/C(=C\c2ccc(C)cc2)C1=O)C(=O)OC (stereo not shown)  pIC50 (Leishmania major; parasite growth; 72 h, intracellular, amastigote): 5.13
Cc1ccc(F)c(NC(=O)c2[nH]c3cc(C)sc3c2CN(C)C)c1  pIC50 (Giardia duodenalis; parasite growth; 48 h): < 5.00
Cc1cc(N2CCC(C#N)(C3(C)CC3)C2=O)cc(C(=O)NCc2cc(F)cc(-c3cnn(C)c3)c2)n1 (racemic)  pIC50 (Plasmodium falciparum; parasite growth, [3H]hypoxanthine incorporation; Dd2; 72 h): 7.62
CCOC(=O)C(CC)NC(=O)CN1C(=O)S/C(=C\c2ccc(OC)cc2)C1=O (stereo not shown)  pIC50 (Leishmania major; parasite growth; 24 h, intracellular, amastigote): < 5.00
Cc1cc2[nH]c(C(=O)Nc3cc(F)ccc3Cl)c(CN(C)C)c2s1  pIC50 (Giardia duodenalis; parasite growth): ≥ 5.00
